Measurements gathered from unrelated publications.
Parts stem from different laboratories: compare values within a part only.

Set 1
Target: Sal-like protein 4, full length isoform A (SALL4, Homo sapiens, UniProt Q9UJQ4, residues 1-1053)
Chain of UniProt Q9UJQ4 (whole entry, looked up): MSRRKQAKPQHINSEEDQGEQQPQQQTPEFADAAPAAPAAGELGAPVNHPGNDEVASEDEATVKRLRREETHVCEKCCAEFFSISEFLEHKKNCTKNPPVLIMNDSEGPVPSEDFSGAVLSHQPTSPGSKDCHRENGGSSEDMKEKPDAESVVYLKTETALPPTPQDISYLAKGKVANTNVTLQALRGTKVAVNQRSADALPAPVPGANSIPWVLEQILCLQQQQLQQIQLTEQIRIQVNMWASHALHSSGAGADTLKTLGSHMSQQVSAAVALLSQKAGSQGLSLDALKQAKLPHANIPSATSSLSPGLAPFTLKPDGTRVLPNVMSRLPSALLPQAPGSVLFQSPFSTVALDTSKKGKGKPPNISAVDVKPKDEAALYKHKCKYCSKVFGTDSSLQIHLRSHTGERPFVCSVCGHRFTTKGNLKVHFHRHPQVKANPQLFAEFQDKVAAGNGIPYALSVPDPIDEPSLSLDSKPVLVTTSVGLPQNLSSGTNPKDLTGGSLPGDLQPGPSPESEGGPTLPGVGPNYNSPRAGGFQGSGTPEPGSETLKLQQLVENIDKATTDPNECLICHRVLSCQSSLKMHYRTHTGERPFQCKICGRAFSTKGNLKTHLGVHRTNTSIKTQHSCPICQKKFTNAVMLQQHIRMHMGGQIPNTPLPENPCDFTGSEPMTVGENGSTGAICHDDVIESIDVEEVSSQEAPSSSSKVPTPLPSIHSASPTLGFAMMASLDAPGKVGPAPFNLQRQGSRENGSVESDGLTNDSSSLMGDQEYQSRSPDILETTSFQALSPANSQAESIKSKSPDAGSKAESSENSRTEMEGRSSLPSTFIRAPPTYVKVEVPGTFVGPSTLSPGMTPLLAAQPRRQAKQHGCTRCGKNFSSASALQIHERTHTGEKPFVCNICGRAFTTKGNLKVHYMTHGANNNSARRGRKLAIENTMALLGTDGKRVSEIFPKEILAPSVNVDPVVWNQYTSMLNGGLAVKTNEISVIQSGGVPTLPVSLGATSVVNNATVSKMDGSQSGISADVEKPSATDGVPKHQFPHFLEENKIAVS
Method: universal PBM
Form: double-stranded DNA, one strand shown
Matrix: in vitro
Tested at: 600 nM
Notes: 8-mer, flanks averaged, mean of replicates
Direction: higher = stronger binding
| Strand | E-score |
| --- | --- |
| GATAGATC | 0.0557 |
| AAGCACAA | 0.203 |
| ACATGGTG | 0.0606 |
| AAGAAATT | 0.318 |
| CCGTAGTA | -0.00982 |
| AATATTCC | 0.374 |
| CGGCCCAC | -0.337 |
| ACCTTCCC | -0.0986 |
| ATACCCCG | -0.187 |
| GACAGCCA | -0.145 |
| AGTAGTTC | 0.0486 |
| AGGACCTA | 0.00104 |
| AAGTCTCG | -0.139 |
| GAGCAACC | -0.174 |
| AGACGTAT | 0.145 |
| AGGGGAGC | -0.389 |
| CTACTAAC | 0.0669 |
| TCCAGGGA | -0.234 |
| GGGGCCCC | -0.437 |
| CTTGCGTA | -0.0277 |
| CACAAACC | -0.0416 |
| AATGAGAT | 0.289 |
| GGTGTGGA | -0.019 |

Set 2
Target: RNA binding protein fox-1 homolog 2, RRM domain, GST-SBP tag (RBFOX2, Homo sapiens, UniProt O43251-10, residues 100-194)
Method: RNA Bind-n-Seq
Form: RNA
Matrix: in vitro
Tested at: 365 nM
Notes: natural RNA segment, single round, ends assumed
Reference: no-protein control
Direction: higher = stronger binding
Construct (chain): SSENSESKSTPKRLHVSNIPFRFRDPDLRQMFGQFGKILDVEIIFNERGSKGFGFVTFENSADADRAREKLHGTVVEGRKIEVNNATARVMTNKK
| Strand | RBNS enrichment (R) |
| --- | --- |
| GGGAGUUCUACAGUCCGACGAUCGACAAGCCAUCCAUCCCCCAUGGGAGAGGAGACAGUGUGGCAUCUGGGCCCAGCCCAGGGUCUGACUAUCCUAGGCGUCUUCUGAGAAGGCUUUUUCAGGGAAAACAAACUGGAAUUCUCGGGUGCCAA | 0.312 |
| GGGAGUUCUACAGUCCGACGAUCUUAUAUGACUAAACUACUAGUCAAUACAGCUUGCAAUAAUAGUGCAUGAAUGAUAACAGGCCUCGGCUUUAUCACCCAAAAAAUAACUUGAAUUCUAUGUGAAAUGUGUUUGGAAUUCUCGGGUGCCAA | 5.89 |
| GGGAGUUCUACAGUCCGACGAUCUUUAACAGCCAUGCCUUCUGGAAUCUGGAAGAGGACACCACUCCUGCAGUCACUGGGCAGCCACAUAGCAGCUGCAGGUCCCAGGAGGGCCUGAGGUCAAAGCUGUGGAAUGGAAUUCUCGGGUGCCAA | 0.342 |
| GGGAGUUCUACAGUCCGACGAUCUCCUCCGCGGGAGGUGGCCCUCAGCUGGGACAGUGGGGACCCAGGCUUCUCCUCAGAGCCAGGCCCUGACUUGCCUUCUCCCACCCCGUGGACCGCUUCCCCUGCCUUCUUGGAAUUCUCGGGUGCCAA | 0.34 |
| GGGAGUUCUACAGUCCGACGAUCUCAGGUACAUUAAUUGCAUAUUAUUUUGGGAAAGAUGAGUCCUAUACGUGGCAAUUUUUCAAUGUCAUCUGAAGCCAGCAUUAUCUUCCAAAGAAAUCGAUCUUUUUUUUUGGAAUUCUCGGGUGCCAA | 1.11 |
| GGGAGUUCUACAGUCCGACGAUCUCGAUUACUUGAGGUCAGGAGUUCACGACCAGCCUGGCCAACAUUGUGAAACCCCAUCUCUGCCAAAAAUACAAAAGUUAGCCGGGCGUAGUGGCACAUGCCUGUAAUCCUGGAAUUCUCGGGUGCCAA | 0.596 |
| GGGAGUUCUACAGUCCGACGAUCGAGACUGGCUGAAAUGAGGAGACUUUGACCAUGUGACGUGUCAACAGACUCAAGGAGACAACCACCUCAACUGGGUCAUGUGGCAUGCCUGUGUAUGUGUGUAACAGAAUUGGAAUUCUCGGGUGCCAA | 0.858 |
| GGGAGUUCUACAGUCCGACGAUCCUACUUUCCGUUUACUUCAAUCCUUGCCUUUUUGGUCAUUGUUAUAAUGCCAGCUUUAGGACAGAAAGAAUUAUAAGAAAACCAGCAUAAUACCUGAUAUAUUAAAAUGUUGGAAUUCUCGGGUGCCAA | 0.434 |
| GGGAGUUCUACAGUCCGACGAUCGUCUGUGCCUCUGAGCAGACCGUGAGAACUCAGGGGACGAGUGGCUAAGAGCAUGGCCUCUCCCAGAACCCACCCAGGGUGGUGUGGUGGGGGCAACAGGGGCCAGACUCUGGAAUUCUCGGGUGCCAA | 0.603 |
| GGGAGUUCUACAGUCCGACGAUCAGGUACUUUGGGACCCCUGGGAGGGUCCUACGUCCAGCCUCCAUCUCGGUCCUCUGGCCCCUUCUCCUUGCGGACCUCAUUUGGAAGGACACAUCUCUCUAUGCAAUUUGUGGAAUUCUCGGGUGCCAA | 0.366 |
| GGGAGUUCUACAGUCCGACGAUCUCAUCUAGCUUUUCAUUCUUUAAGUAAGGGGGAAAAAAUCACUAAACAAUAAAGUUGGCUAGACCUUGUUUGGGGAAUUUUACAAAUUUUAUAAACUAUCUGUAGCAAUUUGGAAUUCUCGGGUGCCAA | 0.519 |
| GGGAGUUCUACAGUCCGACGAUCAUACGUGCAGAUAGGGGGCAGGGUUCGUUUACAGUGCCAGCAAGCAUGGAGUUGUCAGUAUUGGAGUGAGUUGUCGAAUUGUAGCUGCAUCUUGGUUCCUUUACACAGCUUGGAAUUCUCGGGUGCCAA | 4.78 |

Set 3
Target: Histone acetyltransferase KAT6A, both winged helices, GST fusion (KAT6A, Homo sapiens, UniProt Q92794, residues 1-181)
Method: protein binding microarray
Form: double-stranded DNA, one strand shown
Matrix: in vitro
Tested at: not given
Notes: 8-mer, flanks averaged, mean of 2 arrays, mostly near background
Reference: not given
Direction: higher = stronger binding
Construct (chain): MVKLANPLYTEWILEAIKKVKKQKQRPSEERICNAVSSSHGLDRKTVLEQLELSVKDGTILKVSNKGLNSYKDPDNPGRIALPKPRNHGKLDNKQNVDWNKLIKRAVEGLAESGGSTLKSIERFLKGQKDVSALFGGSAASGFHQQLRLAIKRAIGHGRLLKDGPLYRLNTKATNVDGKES
| Strand | E-score |
| --- | --- |
| AACCGTGC | 0.0494 |
| ATCGTTTG | -0.0204 |
| ATTAACAA | -0.00792 |
| GGGCATTA | -0.158 |
| ATCATTCG | 0.00914 |
| GAATCTGC | -0.0299 |
| CCTGCAAC | -0.049 |
| GCACGAGC | 0.0589 |
| TATGAACA | -0.145 |
| TCTGAGAA | -0.173 |
| AAAACCGA | 0.135 |
| TGTGCCAA | -0.185 |
| CACAGTCG | -0.0246 |
| AACTCAAC | -0.117 |
| CGTTCGCC | 0.111 |
| ATTGAGGA | -0.0571 |
| TACTCGGA | 0.0454 |
| TACGCATA | 0.133 |
| GTAAACCA | 0.0238 |
| CAAGAGTG | -0.166 |
| GTCAGTCA | -0.0266 |

Set 4
Target: Ras GTPase-activating protein-binding protein 1, full length (G3BP1, Homo sapiens, UniProt Q13283)
Chain of UniProt Q13283 (whole entry, looked up): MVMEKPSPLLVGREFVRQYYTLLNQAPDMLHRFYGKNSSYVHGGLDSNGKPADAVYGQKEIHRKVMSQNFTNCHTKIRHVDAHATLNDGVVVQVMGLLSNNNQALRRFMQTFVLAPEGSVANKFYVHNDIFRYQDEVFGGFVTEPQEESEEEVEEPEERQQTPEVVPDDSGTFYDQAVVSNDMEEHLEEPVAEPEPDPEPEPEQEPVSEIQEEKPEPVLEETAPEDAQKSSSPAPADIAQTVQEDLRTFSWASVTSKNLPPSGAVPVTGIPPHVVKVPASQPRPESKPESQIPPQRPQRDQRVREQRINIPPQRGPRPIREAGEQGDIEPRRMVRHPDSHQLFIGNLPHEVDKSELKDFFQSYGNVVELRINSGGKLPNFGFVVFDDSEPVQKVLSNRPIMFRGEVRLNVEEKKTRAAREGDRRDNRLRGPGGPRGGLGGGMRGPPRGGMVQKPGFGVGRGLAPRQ
Method: RNA Bind-n-Seq
Form: RNA
Matrix: in vitro
Tested at: 200 nM
Notes: whole 134-nt RNA, ends assumed
Added: 150 mM KCl
Reference: input library
Direction: higher = stronger binding
| Strand | log2 enrichment |
| --- | --- |
| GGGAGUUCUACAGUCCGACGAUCUCAAGUCCUGUGCUACACAUCGUAUGUACCGAAUCGGAGGAAAGGAAAAAAAGGAAAGUAUUAUGUUACGCCGUUCGGAUCUGCACUUCCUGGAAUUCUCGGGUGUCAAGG | -0.969 |
| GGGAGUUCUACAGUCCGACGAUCCCUCAAGUCCUGUGCUACACAUCGUAUGUACCGAAUCGGUUGGGUUGGUUGGGAAAGUAUUAUGUUACGCCGUUCGGAUCUGCACUUCCAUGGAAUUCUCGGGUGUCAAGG | -0.2 |
| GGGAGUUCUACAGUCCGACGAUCUCAAGUCCUGUGCUACACAUCGUAUGUACCGAAUCGGGGUUGGGGUUGGUUGGGGAAAGUAUUAUGUUACGCCGUUCGGAUCUGCACUUCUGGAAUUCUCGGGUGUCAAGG | 0.422 |
| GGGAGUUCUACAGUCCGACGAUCACCAUGCAGAUGGGCAUCUUUGGGAAGUGGGGCAAGGGGGGGAUAGGGAGGGGGGUAACACUUUGGGAACAGGUGGUCCCAGGUCGUUUCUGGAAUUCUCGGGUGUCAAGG | 1.19 |
| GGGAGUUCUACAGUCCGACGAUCGUCCUGUGCUACACAUCGUAUGUACCGAAUCGGGGAAAGGGGUUUUUGGGGUUUGGGGAAAGUAUUAUGUUACGCCGUUCGGAUCUGCACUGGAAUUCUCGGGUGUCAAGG | 0.447 |
| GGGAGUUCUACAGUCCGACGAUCAAGUCCUGUGCUACACAUCGUAUGUACCGAAUCGGAAAAAAAGGAAAGGAAAAAGGAAAGUAUUAUGUUACGCCGUUCGGAUCUGCACUUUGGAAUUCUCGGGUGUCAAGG | -1.24 |
| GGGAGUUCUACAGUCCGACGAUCAAGUCCUGUGCUACACAUCGUAUGUACCGAAUCGGAAAGGAAAAAAAGGUUUUUGGAAAGUAUUAUGUUACGCCGUUCGGAUCUGCACUUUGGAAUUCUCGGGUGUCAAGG | -1.54 |
| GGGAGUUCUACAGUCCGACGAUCUGGCCCUGGUGGCAUGCGGGGAGGAAGAGGUGGCCUCAUGGAUCGUGGUGGUCCCGGUGGAACGUUCAGAGGUGGCCGUGGUGGAGACAGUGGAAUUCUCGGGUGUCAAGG | 0.145 |
| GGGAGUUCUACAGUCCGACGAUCCUCAAGUCCUGUGCUACACAUCGUAUGUACCGAAUCGGGCCGGCCGGCCGGGGAAAGUAUUAUGUUACGCCGUUCGGAUCUGCACUUCCAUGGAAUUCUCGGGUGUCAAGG | 0.454 |
| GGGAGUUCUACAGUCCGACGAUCUGGCCCUGGUGGCAUGCGGGGAGGAAGAGGCGGCCUCAUGGAUCGUGGUGGUCCCGGUGGAAUGUUCAGAGGUGGCCGUGGUGGAGACAGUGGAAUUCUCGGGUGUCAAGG | 0.0739 |

For quick reference, copied from above (set 1):
| Strand | E-score |
| --- | --- |
| GGGGCCCC | -0.437 |
| AGGACCTA | 0.00104 |
| AAGTCTCG | -0.139 |
| AAGAAATT | 0.318 |
| AAGCACAA | 0.203 |
| CACAAACC | -0.0416 |
| ATACCCCG | -0.187 |
| AGGGGAGC | -0.389 |
| AATGAGAT | 0.289 |
| ACATGGTG | 0.0606 |
